Assay results from different studies.
Numbered parts are unrelated; each lists some results of a single study.

Sample 1
Target: TAR DNA-binding protein 43, full length, His tag (TARDBP, Homo sapiens, UniProt Q13148, residues 1-414)
Method: RNA Bind-n-Seq
Form: RNA
Medium: in vitro
Concentration: 20 nM
Setting: 6-mer, flanks averaged, single round
With: 150 mM LiCl
Baseline: input library
Reading: higher = stronger binding
| Sequence | 6-mer enrichment (R) |
| --- | --- |
| CUUAAG | 0.868 |
| CCAGAA | 0.838 |
| UCGGCG | 0.958 |
| GAUUUG | 1.04 |
| CCCGCU | 1 |
| UUUAGC | 1 |
| AUGUAC | 0.909 |
| ACCCCG | 1.01 |
| AAUCCU | 0.835 |
| UAGAGU | 1.03 |
| UUCCAA | 0.855 |
| CUCCUC | 0.972 |
| GUUUAC | 0.983 |
| GCAAUG | 0.948 |
| AUAAAG | 0.894 |
| ACCUAC | 0.862 |
| GGACCG | 0.983 |
| AAUUUC | 0.944 |
| UGACUC | 0.858 |

Sample 2
Target: Histone acetyltransferase KAT6A, both winged helices, GST fusion (KAT6A, Homo sapiens, UniProt Q92794, residues 1-181)
Method: protein binding microarray
Form: double-stranded DNA, one strand shown
Medium: in vitro
Concentration: not given
Setting: 8-mer, flanks averaged, mean of 2 arrays, mostly near background
Baseline: not given
Reading: higher = stronger binding
Construct (chain): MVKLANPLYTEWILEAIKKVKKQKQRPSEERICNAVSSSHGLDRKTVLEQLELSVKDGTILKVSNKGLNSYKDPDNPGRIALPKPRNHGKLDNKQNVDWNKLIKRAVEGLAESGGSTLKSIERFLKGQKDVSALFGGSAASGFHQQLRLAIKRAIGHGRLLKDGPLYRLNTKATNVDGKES
| Sequence | E-score |
| --- | --- |
| GATTGTCA | 0.0902 |
| CTTGGCAA | -0.144 |
| CCTATCGC | 0.129 |
| GACCTTAC | -0.0257 |
| CCAGTCCC | -0.168 |
| GACACGGA | 0.201 |
| GCCTGGAA | -0.235 |
| GCAGACAA | -0.0473 |
| AGACACTA | -0.0396 |
| CCGGTCTA | 0.0915 |
| ACTCATTA | -0.0036 |
| GCCCCATA | -0.227 |
| AATGACGT | -0.0387 |
| CAGACGTC | -0.0308 |
| CCGACGTA | 0.136 |
| AGCAGCAC | -0.193 |
| TGTTAGAA | -0.169 |
| AATAAGCG | 0.0663 |
| CATGCTCG | -0.0169 |
| GCTGCCAC | -0.00358 |
| CCCTGCCG | 0.166 |
| CCGAGGCA | 0.0148 |
| CTTCGATA | 0.111 |
| AATGTGGA | -0.149 |
| CGGTTCAA | 0.209 |

Sample 3
Target: RING finger protein unkempt homolog, zinc fingers 1-6, GST-SBP tag (UNK, Homo sapiens, UniProt Q9C0B0, residues 30-357)
Method: RNA Bind-n-Seq
Form: RNA
Medium: in vitro
Concentration: not given
Setting: RNA with constant flanks, human and mouse sites, ends assumed
Baseline: input RNA pool
Reading: higher = stronger binding
Shared flanks, not repeated: GGGAGUUCUACAGUCCGACGAUC … CAACAGAGGAUUGAGCAUCA
Target sequence (chain): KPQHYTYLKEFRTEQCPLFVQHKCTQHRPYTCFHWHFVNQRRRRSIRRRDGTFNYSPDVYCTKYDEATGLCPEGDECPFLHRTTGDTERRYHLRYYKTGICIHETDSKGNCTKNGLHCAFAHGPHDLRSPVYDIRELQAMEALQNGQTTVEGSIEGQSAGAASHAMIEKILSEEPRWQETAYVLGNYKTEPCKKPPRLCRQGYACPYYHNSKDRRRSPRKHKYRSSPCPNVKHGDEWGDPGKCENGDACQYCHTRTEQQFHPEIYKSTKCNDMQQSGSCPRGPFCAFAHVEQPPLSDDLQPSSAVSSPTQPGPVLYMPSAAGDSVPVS
| Sequence | bound/input enrichment [ratio] |
| --- | --- |
| GUGAUGUCUUCCAGACUCGGUGCAGUCACCGCCGUGAGUUUCUUGGUGUGACCAUUAUACUUUAGAAAUAGAACUGUCGAGCUGAGAACACGCGGUCCUUUGCUUUUGUUUUGUACUCAG | 0.216 |
| GCUGGCCCCUUGAGCACCGGGAACCCAGGCUUUGGUUAGAGUUCAAGUUGAGUUUCCCUCUUGUUUAUGUGGCUGUGGGACAGGAGGGGCUCGUUAUCUCUCUGCUGUGGCACUGGCUGC | 0.266 |
| AAAGAAUGUGCUAAUUUCAUCAAGGUACUUAAGGCAUAUAAUCAGACUCACUUGUACGCCUGUGGAACGGGGGCUUUUCAUCCAAUUUGCACCUACAUUGAAAUUGGACAUCAUCCUGAG | 0.221 |
| CCCGUAACGGGGCCUGAGUACGCAACCCCGAUCGUCAUGGACAUGUCAGGGCACCCCACAGCCUCAGUUGGUCUGCCCUCCACAUCCACCUUCAAAACUGCAGGGACCCAGCCUCACGCU | 0.0685 |
| UUGUCAGGUAGUAGUUAGUGCUUAGUAAUCGUGUAUUUGAUCUAGAUAGAAAUAGUCCCCGUGUUUCUCUAGCAUCAUGGUAACACUUGACUUUGCUCCCAUCUCUUAUCCUGAAAUGUA | 0.442 |
| AGGUUGAUCACAUGACAUGUCUACUAAGAAUUUUCACCUCUGUACUUGUAUGUAUAUUUUAUUGUUACUCAAUCUUGUAUUUUAUUUACAAAUUCAACACUGUCAACCCUGGGAAUUCUA | 0.534 |
| AAUAAAGCGGUUGUGCUUCGGGGCCAUGAAUCUGAAGUUUUCAUCUGUGCCUGGAACCCUGUUAGUGAUCUCCUGGCAUCAGGGUCUGGAGACUCCACGGCAAGAAUCUGGAACCUCAGU | 0.142 |
| GAAGUCACAGCCAGCCCCUUGGUGGGGCCAGACAGGAAAAAGUCCACAGCGAGCCCAAGUAACAACGUAUAUUCUGGCGGUAGCAUGGCGAGGAGGAAUACGUAUGUGUGUGAGAGGAGC | 0.353 |
| AAGUUUGGAUUUGAAAUUAGUUUUCCUGAAUUUUGUUUAAAAGGAGUUACGCCUACGAAUGUUAGUGCGUAUAAUUUAAAUACCUGCUUCCUUGCCAAGAAGAUAGCAUCUUCUAAGGUU | 0.608 |
| AUCAUACCAUCAAAGGAUAAGAAUAUUUUGCCAAAGGUUUUCCAUUAUUAUGGCCCUGCUUUAGAAUUUGUGCAGAUGAUAAAAUUAUCAGAUCUACCCUCCUGCUAUAUGUCGGAUAUU | 0.991 |
| CUUUGUUUCUUGGGGCAUUUUUCCUUUUUUUUUUUUUUUUGUUUUUUUUUUACCCCUCCUUAGCUUUAUGCGCUCAGAAACCAAAUUAAACCCCCCCCCCAUGUAACAGGGGGGCAGUGA | 69.6 |

Sample 4
Target: RNA binding protein fox-1 homolog 2, RRM domain, GST-SBP tag (RBFOX2, Homo sapiens, UniProt O43251-10, residues 100-194)
Method: RNA Bind-n-Seq
Form: RNA
Medium: in vitro
Concentration: 365 nM
Setting: natural RNA segment, single round, ends assumed
Baseline: no-protein control
Reading: higher = stronger binding
Shared flanks, not repeated: GGGAGUUCUACAGUCCGACGAUC … UGGAAUUCUCGGGUGCCAA
Target sequence (chain): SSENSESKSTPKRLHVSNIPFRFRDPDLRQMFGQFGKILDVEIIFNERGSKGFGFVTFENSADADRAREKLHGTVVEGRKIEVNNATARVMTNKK
| Sequence | RBNS enrichment (R) |
| --- | --- |
| CCCUCGCCCCAGGCCCGGGUCCUCCAGCGUUGAACACUUCCUUGCUUUUUUCACAUGUUUUAUGGAAUUGUUCACAUGAUUUGAAAUAAUAAAAUGUAGAAAGAAAACAC | 0.391 |
| UUUAUUUUUAAGUUACCAGGCACUUUUCAUGCUAUUUAAGACUAUAUAUCAAAUUGUGCACUUUAAAUAUGUGCAAUUUGUUGUACAUCAGUGAUACCUCAAUAAAUCUG | 0.281 |
| AGACUGUCCUGUCCAGGAAAUCUGGGGGAAGAGGAGUUGCAAUCAGGCCCCAACCCUGUAAUAGGCAAGGAGGAGGAAUCAGGUGAGGCCCUGCCCCCUUUCCAUUCGUG | 0.618 |
| CUCUUUGGCUUAGAAGGCACUCAGAGAAUAUGUGUUAUUCGUGCUCACGGAAAGUUUCUUACUCAUCCCUGUGACUUUGGCUUUAUUUUACAAUAAAACACUGAAAAUGU | 0.606 |
| CACAGCCUGGAGACACCCACACAGAUGGCUGGAUCCGGUGCUACGGGAAACAUUUUCCUAAGAUGCCCAUGAGAACAGACCAAGAUGUGUACAGCACUAUGAGCAUUAAA | 0.337 |
| AUUUUGGAAAUUGAAAAACUUAAUUUACAAGUGCUGGUACAUCUUUUUUCUUUUGUGGACCACAGGAAGGAAGAUUUAUUUUGAUAUUGAUACUUUAAAAGGACUUUAUA | 0.337 |
| UGAUAGCUAUUUUCAUUUGCUCUAUUUUCCUCUGCAUUGUACUAAUCUGUUACUCAGUGUUAGUCUUCAUUUUUCUGUGUUGGAAACCUGCGUCAUGUAAAUAUCUGCAA | 0.264 |
| GGGGAAAAAGGGUAGUUUGUUUCAUACUUUUGGAAUUUUUUUUCAGUGAAAAAUAACUGAAGUUCAUGGUUUUUAAAAAAGGUGAUGAUUCCUUUUAUGCUAUCACACAC | 1.05 |
| UUGCAGCCCCCUCCCUCUCAGGUGUCCUGAGAUGCUGUUCCUGGGAGCCCCCUCAGAAAACUGCCUCACCUGAGACAAGUGCCUGCUGGACAGAGGUGUGAUUCCAGGCC | 0.394 |
| CUCACCCCUCGGUGCCUGGGCCCAGCCCCGUGCCCCUCCGUCUGCCUCCGCACGGCUGGCAGAGGGCAGGCUGCAUGCAGUGGCGGCUACUGGGCCCUGCCCAGCCCCGG | 1.47 |
| AGCCACAGCGCUAGAUAAGCCUCACAGUUGUCCAGGGGAAGGGUUUAGGAAUUGGGUCUUUUGUCCAAGUGACUUCGGUCUUAAGAAGAAAUAGUGUUGGGAGGGAACCU | 0.891 |
| CUGGGCUGCGGGGAGGCUCUUUUUCUCCCUGGCCUCCAGUGCCCACCAGGAGGAUCUGCGCACGGUGCACAGCCCACCAGAGCACUACAGCCUUUUAUUGAGUGGGGCAA | 0.45 |

Sample 5
Target: Prothrombin, mature alpha-thrombin (F2, Homo sapiens, UniProt P00734)
Method: aptamer microarray, sandwich
Form: DNA with 2'F-ANA
Medium: in vitro
Concentration: 200 nM
Setting: whole 15-mer aptamer, many near background
With: Cy3 exosite-II aptamer, 400 nM
Reading: higher = stronger binding
Sequence: GGTTGGTGTGGTTGG
| Modification | mean fluorescence intensity |
| --- | --- |
| 2'F-ANA at 2 3 4 5 6 8 11 12 14 15 | 58.7 a.u. |
| 2'F-ANA at 1 3 10 13 14 15 | 54.4 a.u. |
| 2'F-ANA at 1 2 3 4 5 6 8 13 14 | 50.4 a.u. |
| 2'F-ANA at 2 3 5 6 8 10 11 13 15 | 56.9 a.u. |
| 2'F-ANA at 2 4 6 7 8 9 11 12 15 | 379 a.u. |
| 2'F-ANA at 7 12 13 | 821 a.u. |
| 2'F-ANA at 1 5 6 7 8 9 11 13 14 15 | 50.9 a.u. |
| 2'F-ANA at 1 4 6 10 11 13 | 56.1 a.u. |
| 2'F-ANA at 9 10 14 15 | 107 a.u. |
| 2'F-ANA at 1 2 3 7 15 | 302 a.u. |
| 2'F-ANA at 1 2 4 6 7 8 9 12 | 320 a.u. |
| 2'F-ANA at 8 9 12 13 | 696 a.u. |
| 2'F-ANA at 4 8 11 | 367 a.u. |
| 2'F-ANA at 1 2 4 5 7 10 11 12 13 | 45.7 a.u. |
| 2'F-ANA at 1 2 3 5 9 12 13 14 15 | 46.2 a.u. |
| 2'F-ANA at 3 4 5 7 9 15 | 117 a.u. |
| 2'F-ANA at 1 2 4 7 11 14 | 50.1 a.u. |
| 2'F-ANA at 2 6 7 8 9 11 | 352 a.u. |
| 2'F-ANA at 3 4 7 9 11 | 612 a.u. |
| 2'F-ANA at 2 3 5 7 8 10 | 60.2 a.u. |
| 2'F-ANA at 2 3 4 8 9 10 11 15 | 192 a.u. |
| 2'F-ANA at 1 2 4 7 10 11 12 15 | 59.6 a.u. |
| 2'F-ANA at 2 4 5 6 10 11 | 51.5 a.u. |
| 2'F-ANA at 2 4 6 8 10 11 12 14 15 | 63.2 a.u. |
| 2'F-ANA at 3 4 5 8 10 11 12 13 15 | 54.2 a.u. |

For quick reference, copied from above (sample 5):
| Modification | mean fluorescence intensity |
| --- | --- |
| 2'F-ANA at 1 2 3 4 5 6 8 13 14 | 50.4 a.u. |
| 2'F-ANA at 2 4 6 8 10 11 12 14 15 | 63.2 a.u. |
| 2'F-ANA at 3 4 5 8 10 11 12 13 15 | 54.2 a.u. |
| 2'F-ANA at 1 2 4 6 7 8 9 12 | 320 a.u. |
| 2'F-ANA at 2 4 5 6 10 11 | 51.5 a.u. |
| 2'F-ANA at 1 2 3 7 15 | 302 a.u. |
